Results gathered from unrelated publications.
Lines come from different studies, so protocols differ.
Target: Amine oxidase [flavin-containing] A (MAOA, Homo sapiens, UniProt P21397)
UniProt P21397, sequence (whole entry, looked up): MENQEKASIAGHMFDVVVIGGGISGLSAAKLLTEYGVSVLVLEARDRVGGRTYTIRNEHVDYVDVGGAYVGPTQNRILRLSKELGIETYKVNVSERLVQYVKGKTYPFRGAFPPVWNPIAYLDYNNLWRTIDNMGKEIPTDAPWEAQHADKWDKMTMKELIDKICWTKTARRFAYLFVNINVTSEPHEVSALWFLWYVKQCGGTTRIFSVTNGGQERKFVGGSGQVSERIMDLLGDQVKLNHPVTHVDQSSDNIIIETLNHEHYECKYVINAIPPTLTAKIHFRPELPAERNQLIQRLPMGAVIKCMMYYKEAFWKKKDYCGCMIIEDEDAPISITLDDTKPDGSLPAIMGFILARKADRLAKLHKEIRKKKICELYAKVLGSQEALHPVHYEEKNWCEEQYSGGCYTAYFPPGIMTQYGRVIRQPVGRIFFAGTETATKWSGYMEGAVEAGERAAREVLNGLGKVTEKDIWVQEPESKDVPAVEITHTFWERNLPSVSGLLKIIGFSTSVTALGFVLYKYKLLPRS
Observed: enzyme activity
Action: inhibitor

| Compound | assay | setting | IC50 [µM] |
| --- | --- | --- | --- |
| CC(=O)C1=C(C)NC(SCCCSc2nnc(Cc3ccccc3Nc3c(Cl)cccc3Cl)n2-c2ccc(Cl)c(Cl)c2)=NC1c1ccccc1 (stereo not drawn) | fluorescence |  | 1.44 |
| O=C1CCCC2=C1C(c1c[nH]c3ccccc13)n1c(sc(=Cc3c[nH]c4ccccc34)c1=O)=N2 (stereo not drawn) | fluorescence |  | 0.41 |
| Oc1ccc(C2=Nn3c(nnc3-c3ccc(-n4nc(-c5ccccc5O)nc4-c4ccccc4O)cc3)SC2)cc1 | fluorescence |  | 23.4 |
| O=C(/C=C/c1ccccc1F)c1cc2ccccc2oc1=O |  |  | > 40 |
| Oc1ccccc1-c1nc(-c2ccccc2O)n(-c2ccc(-c3nnc4n3N=C(c3ccccc3)CS4)cc2)n1 | fluorescence |  | 0.63 |
| O=C(/C=C/c1ccccc1)c1cc2ccccc2oc1=O |  |  | > 40 |
| NC(=S)N/N=C/c1cccc(OCc2ccccc2)c1 | absorbance |  | 2.32 |
| Cc1ccc(/C=C/C(=O)c2ccc(N3CCNCC3)cc2)cc1 |  | with preincubation | 29.4 |
| NC(=O)N/N=C/c1cccc(OCc2ccccc2)c1 | absorbance |  | 32.9 |
| O=C1c2ccccc2N(Cc2ccc(F)cc2)C12CCCC2 |  |  | 24.2 |
| NC(=S)N/N=C/c1ccccc1OCc1ccccc1 | absorbance |  | > 40 |
| O=C1c2cc(Cl)ccc2NC12CCCC2 |  |  | 20.2 |
| CC(=O)C1=C(C)NC(SCCCSc2nnc(Cc3ccccc3Nc3c(Cl)cccc3Cl)n2-c2ccc(Cl)c(Cl)c2)=NC1c1ccc([N+](=O)[O-])cc1 (stereo not drawn) | fluorescence |  | 1.26 |
| O=C(/C=C/c1ccc(Br)cc1)c1ccc(N2CCNCC2)cc1 |  | with preincubation | > 40 |
| COc1ccc(C2N=C(SCCCSc3nnc(Cc4ccccc4Nc4c(Cl)cccc4Cl)n3-c3ccc(Cl)c(Cl)c3)NC(C)=C2C(C)=O)cc1 (stereo not drawn) | fluorescence |  | 2.36 |
| COc1ccc(/C=C/C(=O)c2ccc(N3CCNCC3)cc2)cc1 |  | with preincubation | 27.9 |
| NC(=S)N/N=C/c1ccc(OCc2ccccc2)cc1 | absorbance |  | > 40 |

| Compound | assay | setting | IC50 [µM] |
| --- | --- | --- | --- |
| O=C(/C=C/c1ccccc1Br)c1cc2ccccc2oc1=O |  |  | > 40 |
| S=C(N/N=C/c1ccc(OCc2ccccc2)cc1)Nc1ccccc1 | absorbance |  | 17.6 |
| Nn1c(-c2ccc(-n3nc(-c4ccccc4O)nc3-c3ccccc3O)cc2)n[nH]c1=S | fluorescence |  | 19 |
| S=C(N/N=C/c1ccccc1OCc1ccccc1)Nc1ccccc1 | absorbance |  | > 40 |
| O=C1c2ccccc2N(Cc2cccc(Br)c2)C12CCCC2 |  |  | 5.58 |
| CSc1ccc(C2=Nn3c(nnc3-c3ccc(-n4nc(-c5ccccc5O)nc4-c4ccccc4O)cc3)SC2)cc1 | fluorescence |  | 1.52 |
| O=C1c2cc(Br)ccc2NC12CCCC2 |  |  | 20.6 |
| O=C(/C=C/c1ccc([N+](=O)[O-])cc1)c1ccc(N2CCNCC2)cc1 |  | with preincubation | 35.3 |
| O=C(/C=C/c1cccc(Br)c1)c1cc2ccccc2oc1=O |  |  | > 40 |
| O=c1ccoc2ccc(OCCCN3CCOCC3)cc12 | fluorescence |  | 1.7 |
| O=[N+]([O-])c1cccc(C2=Nn3c(nnc3-c3ccc(-n4nc(-c5ccccc5O)nc4-c4ccccc4O)cc3)SC2)c1 | fluorescence |  | 6.67 |
| CNC(=S)N/N=C/c1cccc(OCc2ccccc2)c1 | absorbance |  | 4.53 |
| N#Cc1ccc(CN2c3ccccc3C(=O)C23CCCC3)cc1 |  |  | 22.4 |
| C#CCCCOc1ccc(C2CC2N)cc1 (stereo not drawn) |  |  | 0.5 |
| Fc1cccc(COc2ccc(/C=N/NC(=S)Nc3ccccc3)cc2)c1 | absorbance |  | > 40 |
| O=C(/C=C/c1ccc(Br)cc1)c1cc2ccccc2oc1=O |  |  | > 40 |

Repeated from above:
| Compound | assay | setting | IC50 [µM] |
| --- | --- | --- | --- |
| Cc1ccc(/C=C/C(=O)c2ccc(N3CCNCC3)cc2)cc1 |  | with preincubation | 29.4 |
| O=C1c2cc(Br)ccc2NC12CCCC2 |  |  | 20.6 |
| Nn1c(-c2ccc(-n3nc(-c4ccccc4O)nc3-c3ccccc3O)cc2)n[nH]c1=S | fluorescence |  | 19 |
| Fc1cccc(COc2ccc(/C=N/NC(=S)Nc3ccccc3)cc2)c1 | absorbance |  | > 40 |
| NC(=S)N/N=C/c1ccc(OCc2ccccc2)cc1 | absorbance |  | > 40 |
